Published values from different studies.
Each line is one published result; not all experiments were run side by side. ± marks the error that the study gave.
PDGFRB: Platelet-derived growth factor receptor beta (PDGFRB, Homo sapiens, UniProt P09619)
KDR: Vascular endothelial growth factor receptor 2 (KDR, Homo sapiens, UniProt P35968)
CTSL: Procathepsin L (CTSL, Homo sapiens, UniProt P07711)

Structure (SMILES)	target	test	test system	conditions	IC50 [µM]
COc1cc2nccc(Oc3ccc(NC(=S)NC(C)C)c(Cl)c3)c2cc1C(N)=O	PDGFRB				0.0785
CC1(C)C2CC3C(c4ccccc4)c4c(O)c(C=O)c(O)c(C=O)c4OC3(C)C1C2 (single isomer, unassigned; (+))	ATP-dependent 6-phosphofructokinase, liver type (PFKL, Homo sapiens, UniProt P17858, K677R/K681R)	enzyme activity, inhibitor, coupled enzyme		double mutant	> 100
CCOCCCOc1cc2nccc(Oc3ccc(NC(=S)NC4CC4)c(Cl)c3)c2cc1C(N)=O	KDR				0.0267
Cn1cc2c(n1)CN(C(=O)Nc1nc(-c3ccc(F)cc3)ccc1N)C2	Polyamine deacetylase HDAC10 (HDAC10, Homo sapiens, UniProt Q969S8)	deacetylase activity, inhibitor, recombinant enzyme			> 30
Cc1c(C)n(-c2ccc(Br)cc2)c2ncnc(N3CCC(C(N)C(=O)N4CCCC4)CC3)c12 (stereo not drawn)	Protein-arginine deiminase type-4 (PADI4, Homo sapiens, UniProt Q9UM07)	enzyme activity, fluorescence quenching		with: Ca2+ 0.4 mM	15.9
O=C(O)c1ccccc1-c1c2ccc(=O)c(Br)c-2oc2c(Br)c(O)ccc12	Alpha-ketoglutarate-dependent dioxygenase FTO (FTO, Homo sapiens, UniProt Q9C0B1)	enzyme activity, inhibitor, mass spectrometry			23.8
O=C(Nc1ccc2nc(NC(=O)c3ccco3)sc2c1)c1ccco1	Nucleoside transporter 1 (Plasmodium vivax, UniProt A5K8B0)	yeast growth	purine auxotrophic yeast expressing target	15 to 17 h, with: adenosine 1 mM	0.063 ± 0.026
COc1cc2nccc(Oc3ccc(NC(=S)Nc4ccccc4F)c(Cl)c3)c2cc1C(N)=O	KDR				0.139
C=CC(=O)NCc1ccc(C(=O)Nc2nc(-c3ccc4c(c3)Cc3ccccc3-4)cs2)cc1	GCLC/GCLM (Homo sapiens, UniProt P48506+P48507)	enzyme activity, inhibitor		30 min preincubation, 37 °C	6.8
O=C(O)c1ccc2[nH]cc(-c3ccc4cc(O)ccc4c3)c2c1	Microtubule-associated protein tau (MAPT, Homo sapiens, UniProt P10636)	amyloid aggregation, inhibitor, fluorescence			24
COc1cc2nccc(Oc3ccc(NC(=S)NC4CCOCC4)c(Cl)c3)c2cc1C(N)=O	PDGFRB				0.178
COCC1CN(C2CCN(c3cc(OC)c(Nc4ncc(Br)c(Nc5ccc6c(c5P(C)(C)=O)OCCO6)n4)cc3C)CC2)C1	Epidermal growth factor receptor (EGFR, Homo sapiens, UniProt P00533, del746-750)	enzyme activity, inhibitor, TR-FRET			< 0.0015
Cn1c(-c2ccccc2)c(-c2nc3ccccc3[nH]c2=O)c2ccccc21	Tyrosine-protein kinase JAK3 (JAK3, Homo sapiens, UniProt P52333)	enzyme activity, inhibitor, ADP detection			0.02 to 0.028
CN(C(=O)c1ccn2ncc(-c3ccc(C(N)=O)cc3)c2c1)c1ccc(C#N)cn1	Equilibrative nucleoside transporter 1 (SLC29A1, Homo sapiens, UniProt Q99808)	inhibitor, radioligand binding			> 30
CC[C@H](C)[C@H](NC(=O)[C@H](CC(C)C)NC(=O)[C@H](CCCNC(=N)N)NC(=O)c1ccc(CN2CCNCC2)cc1)C(=O)N[C@@H](Cc1ccccc1)C(N)=O	Cyclin-A2, with CDK2 (CCNA2, Homo sapiens, UniProt P20248)	binding to cyclin groove, inhibitor, fluorescence polarization competition			12.9
COc1cc2nccc(Oc3ccc(NC(=S)NCc4ccccn4)c(Cl)c3)c2cc1C(N)=O	KDR				0.373
O=C1C2=C(Nc3ccccc3SC2C2CCCCC2)c2ccccc21 (racemic)	Cytochrome b (MT-CYB, Homo sapiens, UniProt P00156)	enzyme activity, inhibitor			> 5

Structure (SMILES)	target	test	test system	conditions	IC50 [µM]
COc1c(C[C@@H](C)O)c2c3c(C[C@@H](C)O)c(OC)c(=O)c4c(O)cc(OC)c(c5c(OC)cc(O)c(c1=O)c52)c43	protein kinase C	enzyme activity, inhibitor		whole enzyme	3.5
COc1cc2nccc(Oc3ccc(NC(=S)NCC4CC4)c(Cl)c3)c2cc1C(N)=O	PDGFRB				0.0311
C#CCCNC(=O)[C@@H](NC(=O)N[C@H](C(=O)N[C@H]1/C=C/CCNC(=O)/C=C/[C@H](C(C)C)NC1=O)C(C)C)C(C)C	Proteasome subunit beta type-5 (Psmb5, Mus musculus, UniProt O55234)	chymotrypsin-like activity, inhibitor	mouse constitutive proteasome	with: Suc-LLVY-AMC	0.0021
CN(CC(=O)c1ccc2[nH]c(=O)[nH]c2c1)Cc1ccco1	DNA dC->dU-editing enzyme APOBEC-3A (Homo sapiens, UniProt P31941)	deaminase activity, inhibitor, alkaline cleavage	293T lysate, untagged		> 1000
CC(C)(C)NCCCNC(=O)c1ccnc(C(F)(F)F)c1	E3 ubiquitin-protein ligase UHRF1 (UHRF1, Homo sapiens, UniProt Q96T88)	methyl-lysine reader binding, inhibitor, AlphaScreen			> 100
NC1CCC(Nc2nccc(-c3cccnc3Oc3ccc(NS(=O)(=O)C4CCC4)c4ccccc34)n2)CC1 (stereo not drawn)	Serine/threonine-protein kinase/endoribonuclease IRE1, RNase domain (ERN1, Homo sapiens, UniProt O75460)	RNase activity, inhibitor		with: XBP1 mini-substrate	0.01 ± 0.001
Fc1ccc2[nH]ccc2c1-c1nc(N2CCOCC2)c2sc(CN3CCN(CC4CC4)CC3)cc2n1	DNA-dependent protein kinase catalytic subunit (PRKDC, Homo sapiens, UniProt P78527)	enzyme activity, inhibitor			> 10
N=C(N)NCCC[C@@H]1NC(=O)[C@H](CCCCNC(=O)CNC(=O)CNC(=O)CNC(=O)CC[C@H](NC(=O)CNC(=O)CNC(=O)CNC(=O)CC[C@H](NC(=O)CN2CCN(CC(=O)O)CCN(CC(=O)O)CCN(CC(=O)O)CC2)C(=O)NCC(=O)NCC(=O)NCC(=O)N[C@@H](CCC(=O)NCC(=O)NCC(=O)NCC(=O)NCCCC[C@@H]2NC(=O)[C@@H](Cc3ccccc3)NC(=O)[C@H](CC(=O)O)NC(=O)CNC(=O)[C@H](CCCNC(=N)N)NC2=O)C(=O)NCC(=O)NCC(=O)NCC(=O)NCCCC[C@@H]2NC(=O)[C@@H](Cc3ccccc3)NC(=O)[C@H](CC(=O)O)NC(=O)CNC(=O)[C@H](CCCNC(=N)N)NC2=O)C(=O)NCC(=O)NCC(=O)NCC(=O)NCCCC[C@@H]2NC(=O)[C@@H](Cc3ccccc3)NC(=O)[C@H](CC(=O)O)NC(=O)CNC(=O)[C@H](CCCNC(=N)N)NC2=O)NC(=O)[C@@H](Cc2ccccc2)NC(=O)[C@H](CC(=O)O)NC(=O)CNC1=O	Integrin alpha-V/beta-3 (Homo sapiens, UniProt P05106+P06756)	ligand displacement, radioligand			0.0004
CC(C)CCN(Cc1cccnc1)c1nc(C#N)nc(N2CCOCC2)n1	CTSL	enzyme activity, inhibitor, fluorescence			0.027
O=C1CC(c2ccccc2)N1S(=O)(=O)c1cccc(-c2ccccc2)c1 (stereo not drawn)	Rhomboid protease AarA (Providencia stuartii, UniProt P46116)	enzyme activity, inhibitor, fluorescence			< 20
CC(C)CCN(CCCc1ccccc1)c1nc(C#N)nc(N2CCOCC2)n1	CTSL	enzyme activity, inhibitor, fluorescence			0.035
O=c1c2ccccc2sn1-c1ccccc1	Histone deacetylase 5 (HDAC5, Homo sapiens, UniProt Q9UQL6)	enzyme activity, inhibitor			1.49
COc1cc2nccc(Oc3ccc(NC(=O)NC4CC4)c(Cl)c3)c2cc1C(N)=O	PDGFRB	enzyme activity, inhibitor			> 0.1
COc1cc2ncnc(Oc3ccc(Nc4nccc5[nH]cc(-c6cccc(F)c6)c(=O)c45)cc3F)c2cc1OC	Hepatocyte growth factor receptor (MET, Homo sapiens, UniProt P08581)	HGF-induced autophosphorylation, inhibitor, ELISA	MKN-45		0.601
COc1ccc(O[C@@H]2O[C@H](COS(=O)(=O)O)[C@H](OS(=O)(=O)O)[C@H](O[C@@H]3O[C@H](C(=O)O)[C@@H](O[C@@H]4O[C@H](COS(=O)(=O)O)[C@H](OS(=O)(=O)O)[C@H](O[C@@H]5O[C@H](C(=O)O)[C@@H](OS(=O)(=O)O)[C@H](O)[C@H]5O)[C@H]4NC(C)=O)[C@H](O)[C@H]3O)[C@H]2NC(C)=O)cc1	Midkine (Homo sapiens, UniProt P21741)	heparin hexasaccharide binding, inhibitor, fluorescence polarisation competition		with: fluorescein-labelled hexasaccharide probe	136
CC1OC(Oc2c(-c3ccc(O)c(O)c3)oc3cc(O)cc(O)c3c2=O)C(O)C(O)C1O (stereo not drawn)	Alpha-glucosidase MAL12 (MAL12, Saccharomyces cerevisiae S288c, UniProt P53341)	enzyme activity, inhibitor, absorbance			> 100

A few entries again:
Structure (SMILES)	target	test	test system	conditions	IC50 [µM]
CC(C)CCN(Cc1cccnc1)c1nc(C#N)nc(N2CCOCC2)n1	CTSL	enzyme activity, inhibitor, fluorescence			0.027
O=C1CC(c2ccccc2)N1S(=O)(=O)c1cccc(-c2ccccc2)c1 (stereo not drawn)	Rhomboid protease AarA (Providencia stuartii, UniProt P46116)	enzyme activity, inhibitor, fluorescence			< 20
CC(C)CCN(CCCc1ccccc1)c1nc(C#N)nc(N2CCOCC2)n1	CTSL	enzyme activity, inhibitor, fluorescence			0.035
